Assay results from different studies.
Every numbered part comes from another study and shows a few of its results, in no order. Changes are numbered by the printed parent chain.

Block 1
Target: Phosphate system positive regulatory protein PHO4, full length, GST-tagged (PHO4, Saccharomyces cerevisiae, UniProt P07270, residues 1-312)
Method: competition protein-binding microarray
Form: double-stranded DNA, one strand shown
Matrix: in vitro
Tested at: 2 µM
Setting: whole 60-bp probe, lowest competitor level
With: Cbf1 competitor, 0.05 µM
Direction: higher = stronger binding
Construct (chain): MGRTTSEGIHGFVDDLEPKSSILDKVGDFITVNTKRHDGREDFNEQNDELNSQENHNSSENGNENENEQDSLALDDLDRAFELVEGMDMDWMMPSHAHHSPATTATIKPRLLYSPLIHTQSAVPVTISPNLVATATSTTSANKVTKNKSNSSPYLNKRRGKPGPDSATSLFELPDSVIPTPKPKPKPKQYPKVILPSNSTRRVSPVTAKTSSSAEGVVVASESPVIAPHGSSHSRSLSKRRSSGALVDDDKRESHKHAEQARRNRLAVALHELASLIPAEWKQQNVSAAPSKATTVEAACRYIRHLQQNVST
For `CTAACGAAGGTTTTTCACGTGGTATACAAGCCAAGTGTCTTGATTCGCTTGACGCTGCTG`, the fluorescence intensity was 16200 a.u.
With `GTAAGTCGTCAAAGGGGCGTGGGTAAGCCATTTCTTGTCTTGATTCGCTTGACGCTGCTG` the fluorescence intensity was 10500 a.u.
`GTCTTGTCTCATTGATGGGTGGGTGTCCCCACTTCAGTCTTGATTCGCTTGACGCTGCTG` has a fluorescence intensity of 5410 a.u.
`CCGGTTTTGTAGGACTAGGTGTGTTCAGTGGTGGCTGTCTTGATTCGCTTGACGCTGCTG` has a fluorescence intensity of 5410 a.u.
With `GTCTTGTCTCATTGTGATGTGGGTGTCCCCACTTCAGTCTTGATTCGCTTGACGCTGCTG` the fluorescence intensity was 5390 a.u.
`CTTTCCCGATCTTGGTCCGTGGGTGTAGCACATTTGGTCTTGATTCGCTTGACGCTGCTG` has a fluorescence intensity of 7530 a.u.
For `CTAACGAAGGTTTGATTGGTGGGTGACAAGCCAAGTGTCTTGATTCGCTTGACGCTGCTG`, the fluorescence intensity was 3760 a.u.
`TAGGTGCCGTACTATCGCGTGCCAGCACCATGACAGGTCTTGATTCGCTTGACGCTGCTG` gave a fluorescence intensity of 8350 a.u.

Block 2
Target: PABPC1L2, full length, GST fusion (mouse, UniProt A0ABA7IW68)
Method: RNAcompete
Form: RNA
Matrix: in vitro
Tested at: 20 nM
Setting: 7-mer, probes averaged, single round
Relative to: mean of 7-mers
Direction: higher = stronger binding
Target sequence (chain): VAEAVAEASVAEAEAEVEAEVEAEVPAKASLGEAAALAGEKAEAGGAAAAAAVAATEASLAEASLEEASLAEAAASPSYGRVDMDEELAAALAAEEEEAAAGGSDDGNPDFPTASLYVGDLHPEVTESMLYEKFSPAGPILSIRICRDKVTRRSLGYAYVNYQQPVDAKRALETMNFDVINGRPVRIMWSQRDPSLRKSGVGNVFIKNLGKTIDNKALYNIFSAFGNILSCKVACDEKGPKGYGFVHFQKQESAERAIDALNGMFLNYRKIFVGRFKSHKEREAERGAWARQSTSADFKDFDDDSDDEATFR
For `AGAUAUG`, the 7-mer Z-score was -0.202.
With `GACAGGC` the 7-mer Z-score was -0.0917.
`GCUCGCG` has a 7-mer Z-score of -0.222.
`UUCGGUU` gave a 7-mer Z-score of -0.38.
For `UAUAGAC`, the 7-mer Z-score was -0.101.
With `GGACUGC` the 7-mer Z-score was 0.178.
For `AAGGACG`, the 7-mer Z-score was 0.407.
The 7-mer Z-score of `GGAUUAA` is reported as 0.144.

Mixed results
P1: PafA, mature enzyme, eGFP fusion (Elizabethkingia meningoseptica, UniProt Q9KJX5); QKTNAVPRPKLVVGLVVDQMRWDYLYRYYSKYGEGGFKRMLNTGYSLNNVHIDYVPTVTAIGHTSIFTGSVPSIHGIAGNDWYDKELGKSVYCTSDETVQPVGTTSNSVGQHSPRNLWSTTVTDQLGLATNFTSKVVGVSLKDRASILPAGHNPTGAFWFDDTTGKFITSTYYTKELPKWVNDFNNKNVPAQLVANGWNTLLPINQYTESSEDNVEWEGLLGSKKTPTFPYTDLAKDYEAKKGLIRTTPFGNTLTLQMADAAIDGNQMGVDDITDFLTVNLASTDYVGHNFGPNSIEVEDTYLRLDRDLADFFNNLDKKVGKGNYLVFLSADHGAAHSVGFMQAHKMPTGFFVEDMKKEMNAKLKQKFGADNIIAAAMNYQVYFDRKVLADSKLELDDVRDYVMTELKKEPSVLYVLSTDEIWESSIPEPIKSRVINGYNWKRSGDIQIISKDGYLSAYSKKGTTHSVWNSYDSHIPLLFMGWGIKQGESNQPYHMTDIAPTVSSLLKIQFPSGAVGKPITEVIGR
Under interaction screen, `ACAD9 (Homo sapiens, UniProt Q9H845)` is recorded as “cross-linked” (NDUFAF1 (Homo sapiens, UniProt Q9Y375); cross-linking MS; hits only).
For `P1 A150V`, “oxyanion analog dissociation constant” read 2.03 µM (tungstate, free oxyanion; microfluidic competitive inhibition; in vitro, cell-free expressed; not given, derived from inhibition constants, unchanged parent 2230 nM; lower = stronger binding).
`ABI2 (Homo sapiens, UniProt Q9NYB9)` — result for interaction screen: “cross-linked” (NCKAP1 (Homo sapiens, UniProt Q9Y2A7); cross-linking MS; hits only).
`PhoQ, residues 284 288 289 292 302 303 AGCYAI` gave a fold induction of 2.81 (PhoP, residues 12 14 15 18 19 NFCKL (Escherichia coli, UniProt P23836); Sort-seq, refers to: YFP reporter; E. coli; PhoQ-PhoP variant library, with: 10 µM Mg2+; relative to: high Mg2+ state, higher = stronger signaling).
For `FLOT1 (Homo sapiens, UniProt O75955)`, interaction screen read “cross-linked” (FLOT2 (Homo sapiens, UniProt Q14254); cross-linking MS; hits only).
`SFPQ (Homo sapiens, UniProt P23246)`: cross-linked residues “K502 to E785” (CACNA1C (Homo sapiens, UniProt Q13936); cross-linking MS; cell fractions; with: DMTMM).

Repeated from above (block 2):
With `GGACUGC` the 7-mer Z-score was 0.178.
For `AAGGACG`, the 7-mer Z-score was 0.407.
The 7-mer Z-score of `GGAUUAA` is reported as 0.144.
